Results from different studies.
Compare with care: the assays were run in different laboratories. Several values in a cell are separate wells, animals, samples, runs or records. Numbers after ± are the reported error.
Organism: Plasmodium berghei

For `COCCC1=C(C(=O)OC)C(c2ccc(Cl)cc2C)C2=C(CC(c3ccc(OC)c(OC)c3)OC2=O)N1` (single isomer, unassigned), the inhibition was less than 10% (parasitaemia; KBG-173, mouse; oral, 50 mg/kg, day 3 post-infection, PEG400 vehicle, Thompson test; baseline: vehicle).
The median survival of `C[C@H]1[C@H](OC(=O)CCC(=O)O)O[C@@H]2O[C@@]3(C)CC[C@H]4[C@H](C)CC[C@@H]1[C@@]24OO3` is reported as 28 days (NK65/GFP, infected mice; oral gavage, 65 µmol/kg once daily, 96 h dosing period).
Under “mean survival time”, `Cl.N=C(CC(O)c1cc2c(F)cc(F)cc2c2cc(C(F)(F)F)ccc12)Nc1ccc(F)c(F)c1` (stereo not drawn) is recorded as 20 days (Peters test; ANKA, mice; oral, 4 x 10 mg/kg).
The EC50 of `CC1(C)c2nc(-c3ccc(F)cc3)c(Nc3ccc(Cl)cc3)n2CCN1C(=O)CN` is reported as 0.019 ± 0.009 µM (HepG2, ANKA GFP-Luc; liver stage).
For `Cl.N=C(CC(O)c1cc2c(F)cc(F)cc2c2cc(C(F)(F)F)ccc12)Nc1ccc(Br)cc1` (stereo not drawn), the parasitemia reduction was 99.8% and > 99% (Peters suppressive test; ANKA, infected mice; oral, 4 x 50 mg/kg, day 4; baseline: untreated control).
Under “liver-stage parasite load suppression”, `COC1=CC(c2ccc[nH]2)=N/C1=C\c1[nH]c(Cc2ccc(OC(F)(F)F)cc2)cc1Cc1ccc(OC(F)(F)F)cc1` is recorded as 56.2% (bioluminescence; mice; oral, 20 mg/kg/day, 48 h; baseline: vehicle).
`COCCC1=C(C(=O)OC)C(c2ccc(Cl)cc2)C2=C(CC(c3ccc(OC)c(OC)c3)CC2=O)N1` (single isomer, unassigned) gave an inhibition of 57.3% (parasitaemia; KBG-173, mouse; oral, 50 mg/kg, day 6 post-infection, PEG400 vehicle, Thompson test; baseline: vehicle).
The parasitaemia inhibition of `C[C@H]1[C@H](OC(=O)CCC(=O)O)O[C@@H]2O[C@@]3(C)CC[C@H]4[C@H](C)CC[C@@H]1[C@@]24OO3` is reported as 99.9% (ANKA GFP-transfected, Mus musculus; oral, 4 x 100 mg/kg, day 4 post infection).
`COc1ccc(C[C@H](NC(=O)[C@H](C)NC(=O)CN2CCOCC2)C(=O)N[C@@H](Cc2ccccc2)C(=O)C2(C)CO2)cc1` (stereo in doubt) gave a survival rate of greater than 80% (ANKA, BALB/c mouse; 10 mg/kg).
